{"data": "Experimental data gathered from unrelated publications", "note": "Parts stem from different laboratories: compare values within a part only. Changes are numbered by the printed parent chain."}
{"data": "Block 1", "target": "NFIL3, bZIP domain (human)", "technique": "DHFR protein complementation", "sample": "yeast", "notes": "single substitutions, most at no-binding floor", "reference": "wild-type JUN-FOS pair", "direction": "higher = stronger binding", "starting sequence": "JUN, bZIP domain (human); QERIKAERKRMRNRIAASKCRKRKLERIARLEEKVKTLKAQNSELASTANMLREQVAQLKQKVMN; partner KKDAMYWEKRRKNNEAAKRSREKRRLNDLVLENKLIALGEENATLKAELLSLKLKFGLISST"}
{"Substitution": "L52T", "binding fitness [natural log]": -1.55}
{"Substitution": "S43Y", "binding fitness [natural log]": -1.46}
{"Substitution": "A40T", "binding fitness [natural log]": -1.4}
{"Substitution": "S43W", "binding fitness [natural log]": -1.49}
{"Substitution": "R30M", "binding fitness [natural log]": -1.27}
{"Substitution": "L31Y", "binding fitness [natural log]": -1.39}
{"Substitution": "Q41K", "binding fitness [natural log]": -1.32}
{"Substitution": "L45A", "binding fitness [natural log]": -1.55}
{"Substitution": "V35C", "binding fitness [natural log]": -1.55}
{"Substitution": "E32P", "binding fitness [natural log]": -1.37}
{"Substitution": "I28K", "binding fitness [natural log]": -1.47}
{"Substitution": "T48P", "binding fitness [natural log]": -1.53}
{"Substitution": "A49D", "binding fitness [natural log]": -1.52}
{"Substitution": "M51E", "binding fitness [natural log]": -1.35}
{"Substitution": "T37D", "binding fitness [natural log]": -1.49}
{"Substitution": "E33D", "binding fitness [natural log]": -1.42}
{"data": "Block 2", "target": "CCND2, cyclin fold, Cln2 fusion (human)", "technique": "yeast growth competition, sequencing", "sample": "yeast", "notes": "weak parent motif", "reference": "not given", "direction": "higher = stronger binding", "starting sequence": "PKN2 docking peptide (human); VSAVQKLDFSDTM"}
{"Substitution": "D8S", "normalised enrichment score": 0.305}
{"Substitution": "M13S", "normalised enrichment score": 0.851}
{"Substitution": "V1E", "normalised enrichment score": 0.168}
{"Substitution": "T12S", "normalised enrichment score": 0.801}
{"Substitution": "F9K", "normalised enrichment score": 0.0768}
{"Substitution": "K6C", "normalised enrichment score": 0.315}
{"Substitution": "A3H", "normalised enrichment score": 0.159}
{"Substitution": "S2N", "normalised enrichment score": 0.356}
{"Substitution": "T12K", "normalised enrichment score": 0.294}
{"Substitution": "S10T", "normalised enrichment score": 0.53}
{"Substitution": "K6L", "normalised enrichment score": 0.283}
{"Substitution": "T12D", "normalised enrichment score": 0.677}
{"Substitution": "M13R", "normalised enrichment score": 0.719}
{"Substitution": "D8Q", "normalised enrichment score": 0.553}
{"Substitution": "A3G", "normalised enrichment score": 0.19}
{"Substitution": "A3R", "normalised enrichment score": 0.0928}
{"data": "Block 3", "target": "Histone acetyltransferase KAT6A, winged helix 1, GST fusion (KAT6A, Homo sapiens, UniProt Q92794, residues 1-85)", "technique": "protein binding microarray", "molecule type": "double-stranded DNA, one strand shown", "sample": "in vitro", "tested at": "not given", "notes": "8-mer, flanks averaged, mean of 2 arrays, mostly near background", "reference": "not given", "direction": "higher = stronger binding", "Residues (chain)": "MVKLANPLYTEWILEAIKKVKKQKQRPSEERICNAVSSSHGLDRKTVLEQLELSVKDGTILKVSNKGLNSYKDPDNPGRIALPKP"}
{"Strand": "CGTGGTGC", "E-score": 0.0774}
{"Strand": "CCACAGTC", "E-score": -0.294}
{"Strand": "AGCTCTGG", "E-score": -0.201}
{"Strand": "TTCGAGAA", "E-score": -0.0843}
{"Strand": "ACATGTTA", "E-score": -0.114}
{"Strand": "ATTTCGGC", "E-score": 0.154}
{"Strand": "ATGTTAGC", "E-score": -0.0443}
{"Strand": "CTTTGTTA", "E-score": -0.0278}
{"Strand": "GTCAGAGA", "E-score": -0.187}
{"Strand": "CCCATCGA", "E-score": -0.155}
{"Strand": "CTGACACA", "E-score": -0.171}
{"Strand": "GTACATAA", "E-score": 0.0535}
{"Strand": "ATAGTCCA", "E-score": -0.258}
{"Strand": "AACAATCC", "E-score": 0.0211}
{"Strand": "GCACAGCC", "E-score": 0.228}
{"Strand": "AATCATAA", "E-score": -0.254}
{"Strand": "CTGCACCC", "E-score": -0.159}
{"Strand": "ATTTTTGC", "E-score": -0.187}
{"Strand": "ACAAAGTA", "E-score": -0.199}
{"Strand": "CCTTATGC", "E-score": -0.0809}
{"Strand": "GCAGCAAA", "E-score": -0.153}
{"Strand": "AGCCTTAA", "E-score": 0.0104}
{"Strand": "CTTGATGC", "E-score": -0.0947}
{"Strand": "ATGTGTGA", "E-score": -0.301}
{"Strand": "CTATGGGC", "E-score": -0.149}
{"data": "Block 4", "target": "Sal-like protein 4, full length isoform B (SALL4, Homo sapiens, UniProt Q9UJQ4-2, residues 1-616)", "technique": "universal PBM", "molecule type": "double-stranded DNA, one strand shown", "sample": "in vitro", "tested at": "not given", "notes": "8-mer, flanks averaged, mean of replicates", "direction": "higher = stronger binding"}
{"Strand": "CCTCCCGC", "E-score": -0.274}
{"Strand": "AGCAGCTG", "E-score": -0.00542}
{"Strand": "AACGATCA", "E-score": 0.0255}
{"Strand": "GTATGGAC", "E-score": 0.118}
{"Strand": "AAGGACAC", "E-score": -0.0663}
{"Strand": "CTGGTTGC", "E-score": -0.207}
{"Strand": "AGGGACAC", "E-score": -0.0728}
{"Strand": "CTGCGCAA", "E-score": -0.0893}
{"Strand": "CATGGGCC", "E-score": -0.288}
{"Strand": "GCACAAAA", "E-score": 0.168}
{"Strand": "GTTTGATA", "E-score": 0.213}
{"Strand": "CGGATTCA", "E-score": -0.057}
{"Strand": "GGCTAGAC", "E-score": -0.134}
{"Strand": "CTCCACAG", "E-score": -0.184}
{"Strand": "ATAGGTTG", "E-score": -0.104}
{"Strand": "GCGAGTAC", "E-score": -0.00314}
{"Strand": "AGGATACC", "E-score": -0.163}
{"Strand": "GGACTCCC", "E-score": -0.33}
{"Strand": "AGTTAATC", "E-score": 0.154}
{"Strand": "ATCGGATG", "E-score": -0.125}
{"Strand": "AAGGTACC", "E-score": -0.206}
{"Strand": "ACCTTTAT", "E-score": 0.179}
{"Strand": "ATTTGTCA", "E-score": 0.149}
{"Strand": "CGCTTCCA", "E-score": -0.189}
{"Strand": "GAAATCAA", "E-score": 0.0379}
{"note": "For quick reference, copied from above (block 1):"}
{"Substitution": "Q41K", "binding fitness [natural log]": -1.32}
{"Substitution": "L45A", "binding fitness [natural log]": -1.55}
{"Substitution": "V35C", "binding fitness [natural log]": -1.55}
{"Substitution": "T48P", "binding fitness [natural log]": -1.53}
{"Substitution": "S43W", "binding fitness [natural log]": -1.49}
{"Substitution": "S43Y", "binding fitness [natural log]": -1.46}
